# Results collected from several papers.
# Each line is one published result; not all experiments were run side by side.
SMILES,organism,test,system,conditions,how to read,quantity,result
Cc1c2c(nn1C)CSCc1cc(n(C)n1)CSc1cc(c3ccccc3c1)OCCCc1c(C(=O)O)n(C)c3c-2c(Cl)ccc13,Staphylococcus aureus,"label-free quantitative proteomics, refers to: SAOUHSC_01832 protein",SA113,concentration not given,relative to: untreated control,fold change,136
CNC(=O)c1ccc(Nc2ncc(C(F)(F)F)c(NCc3nccnc3N(C)S(C)(=O)=O)n2)cc1,murine hepatitis virus,"viral replication, nanoluciferase reporter",DBT,"1 µM, 10 h",relative to: DMSO vehicle,inhibition,38%
CNC(=O)c1cc(Oc2ccc(NC(=O)Nc3ccc(Cl)c(C(F)(F)F)c3)cc2)ccn1,Aspergillus fumigatus,,,20 µM,relative to: untreated,metabolic activity,≥ 80%
O=[N+]([O-])c1cc2c(ccc3cc(Br)ccc32)o1,Enterobacter cloacae,REMA,,,,MIC90,> 32 µg/mL
CC(=O)O[C@H]1C[C@H](O[C@H]2[C@@H](O)C[C@H](O[C@H]3[C@@H](O)C[C@H](O[C@H]4CC[C@@]5(C)[C@H](CC[C@@H]6[C@@H]5C[C@@H](O)[C@]5(C)[C@@H](C7=CC(=O)OC7)CC[C@]65O)C4)O[C@@H]3C)O[C@@H]2C)O[C@H](C)[C@H]1O[C@@H]1O[C@H](CO)[C@@H](O)[C@H](O)[C@H]1O,human alphaherpesvirus 1,,"primary human fibroblasts, K26 GFP",CC50 capped at 10.00 µM,relative to: CC50 over IC50,selectivity index,> 125
NC1(c2ccc(-c3nc4ccn5c(=O)[nH]nc5c4cc3-c3ccccc3)cc2)CCC1,murine hepatitis virus,"viral replication, nanoluciferase reporter",DBT,"1 µM, 10 h",relative to: DMSO vehicle,inhibition,70%
CC[C@H](CC[C@@H](C)[C@H]1CC[C@H]2[C@@H]3CCC4=CC(=O)CC[C@]4(C)[C@H]3CC[C@]12C)C(C)C,Leishmania mexicana,,"mouse C57BL/6 bone marrow-derived macrophages, intracellular amastigotes","concentration not given, 48 h",,antileishmanial activity,inactive
C[C@H](c1ccnc(Nc2nc3ccc(-c4cc(N(C)C)ncn4)cc3[nH]2)c1)N1CCN(C(=O)CC(F)(F)F)CC1,murine hepatitis virus,"viral replication, nanoluciferase reporter",DBT,"1 µM, 10 h",relative to: DMSO vehicle,inhibition,23%
CC1(N)CCN(c2cccnc2NC(=O)c2nc(-c3ncccc3C(F)(F)F)cnc2N)CC1,Aspergillus fumigatus,,,20 µM,relative to: untreated,metabolic activity,≥ 80%
CC(=O)N1CCN(c2ccc(OCC3COC(Cn4ccnc4)(c4ccc(Cl)cc4Cl)O3)cc2)CC1 (stereo not shown),Candida albicans,broth microdilution,"17546, RPMI 1640-MOPS","48 h, 30 °C",,MIC,32 µM
O=[N+]([O-])c1cc2c(ccc3c4cc([N+](=O)[O-])oc4ccc23)o1,Enterobacter cloacae,REMA,,,,MIC90,> 32 µg/mL
COc1cc([C@@H]2c3cc4c(cc3[C@H](O)[C@H]3COC(=O)[C@@H]23)OCO4)cc(OC)c1OC,murine hepatitis virus,"viral replication, nanoluciferase reporter",DBT,"1 µM, 10 h",relative to: DMSO vehicle,inhibition,44%
CC[C@H](C)[C@H](NC(=O)[C@H](CCCNC(=N)N)NC(=O)[C@H](Cc1c[nH]c2ccccc12)NC(=O)[C@H](CCCNC(=N)N)NC(=O)[C@H](Cc1c[nH]c2ccccc12)NC(=O)[C@H](Cc1c[nH]c2ccccc12)NC(=O)[C@H](Cc1c[nH]c2ccccc12)NC(=O)[C@H](CCCNC(=N)N)NC(=O)[C@H](Cc1c[nH]c2ccccc12)NC(=O)[C@@H](N)CCCNC(=N)N)C(N)=O,Candida albicans,broth microdilution,"CGMCC 2.209, RPMI 1640-MOPS","48 h, 30 °C, with: MgCl2 1 mM",,MIC,16 µM
Nc1ncnc2c1ncn2[C@@H]1O[C@@H]2COP(=O)(O)O[C@H]3[C@@H](O)[C@H](n4cnc5c(=O)[nH]cnc54)O[C@@H]3COP(=O)(O)O[C@H]2[C@H]1O,West Nile virus,"RNA sequencing, refers to: TLR endosomal trafficking processing R-HSA-1679131",HFF-1 cells,"concentration not given, upregulated pathway",relative to: WNV-infected untreated cells,fold enrichment,11.8
CCCCCCCCCCCc1c([N+](=O)[O-])oc2ccc3ccccc3c12,Enterobacter cloacae,REMA,,,,MIC90,> 32 µg/mL
Nc1ncnc2c([C@@H]3N[C@H](CO)[C@@H](O)[C@H]3O)c[nH]c12,Measles morbillivirus,viral replication,"Vero 76, Chicago",0.3 µM,,inhibition,0%
C[C@H](NC(=O)[C@H](CCCNC(=N)N)NC(=O)[C@H](Cc1c[nH]c2ccccc12)NC(=O)[C@H](CCCNC(=N)N)NC(=O)[C@H](Cc1c[nH]c2ccccc12)NC(=O)[C@H](Cc1c[nH]c2ccccc12)NC(=O)[C@H](Cc1c[nH]c2ccccc12)NC(=O)[C@H](CCCNC(=N)N)NC(=O)[C@H](Cc1c[nH]c2ccccc12)NC(=O)[C@H](CCCNC(=N)N)NC(=O)CN)C(N)=O,Candida albicans,broth microdilution,"SP3931, RPMI 1640-MOPS","48 h, 30 °C",,MIC,8 µM
CO/N=C(\C(=O)N[C@@H]1C(=O)N2C(C(=O)O)=C(CSC(=O)c3ccco3)CS[C@H]12)c1csc(N)n1,Staphylococcus aureus,,"CAAS-2019-CAAS-2019-11 clinical drug-resistant isolate, PBS",,,MBC,8 µg/mL
CS(=O)(=O)CCCn1c(Cn2c(=O)n(CC(F)(F)F)c3ccncc32)cc2cc(Cl)ccc21,respiratory syncytial virus,RT-qPCR,"hospitalized infants 1-24 months, nasal swab","oral, 9, 6 or 5 mg/kg daily, day 4, high dose by age cohort",relative to: placebo,LS mean difference vs placebo,-2.14 log10 copies/mL
CCCC(CCC)C(=O)Nc1ccccc1O,Artemia franciscana,"LC-MS/MS metabolomics, refers to: 1-aminocyclopropanecarboxylic acid",larvae,"concentration not given, 24 h, LC1 concentration",relative to: vehicle,fold change,1.39
Cc1cc(NC(=O)c2cccc(S(F)(F)(F)(F)F)c2)cc(-n2ccn3nc(-c4cccnc4)cc23)c1,murine hepatitis virus,"viral replication, nanoluciferase reporter",DBT,"1 µM, 10 h",relative to: DMSO vehicle,inhibition,46%
Cn1c(=O)ccc2ccc(F)c(CCNC[C@H]3CN(c4cnc5c(n4)NC(=O)CO5)C(=O)O3)c21,Moraxella catarrhalis,,,,,MIC50,< 0.015 µg/mL
CC[C@H](C)[C@H](NC(=O)[C@H](C)NC(=O)[C@H](CCCCN)NC(=O)[C@H](CC(C)C)NC(=O)[C@H](C)NC(=O)[C@@H](NC(=O)[C@H](Cc1c[nH]cn1)NC(=O)[C@H](CC(C)C)NC(=O)[C@@H](NC(=O)[C@@H](NC(=O)[C@H](CCCCN)NC(=O)[C@H](C)NC(=O)[C@H](C)NC(=O)[C@H](CO)NC(=O)[C@H](CCCCN)NC(=O)[C@H](Cc1ccccc1)NC(=O)[C@@H](NC(=O)[C@H](CCCCN)NC(=O)[C@H](CC(C)C)NC(=O)[C@H](Cc1ccccc1)NC(=O)[C@H](CO)NC(=O)[C@H](CCCCN)NC(=O)[C@H](Cc1c[nH]c2ccccc12)NC(=O)[C@H](CCCCN)NC(C)=O)[C@@H](C)O)[C@@H](C)O)C(C)C)[C@@H](C)O)C(=O)N[C@@H](CO)C(=O)N[C@@H](CO)C(N)=O,Acinetobacter baumannii,,ATCC 19606,,,MBC range,2 µg/mL
NS(=O)(=O)c1ccc(NN=C2C(=O)Nc3ccc(C(=O)NCc4ccncc4)cc32)cc1,Aspergillus fumigatus,,,20 µM,relative to: untreated,metabolic activity,≥ 80%
CCCCN(Cc1ccccc1)C(=O)c1ccc(S(=O)(=O)Nc2ccccc2)cc1,murine hepatitis virus,"viral replication, nanoluciferase reporter",DBT,"1 µM, 10 h",relative to: DMSO vehicle,inhibition,10%
